Measurements gathered from unrelated publications.
Lines come from different studies, so protocols differ. ± marks the error that the study gave.

The chains behind the UniProt entries cited, without tags or fusion partners. Residues count along the entry.
UniProt P50097, whole entry: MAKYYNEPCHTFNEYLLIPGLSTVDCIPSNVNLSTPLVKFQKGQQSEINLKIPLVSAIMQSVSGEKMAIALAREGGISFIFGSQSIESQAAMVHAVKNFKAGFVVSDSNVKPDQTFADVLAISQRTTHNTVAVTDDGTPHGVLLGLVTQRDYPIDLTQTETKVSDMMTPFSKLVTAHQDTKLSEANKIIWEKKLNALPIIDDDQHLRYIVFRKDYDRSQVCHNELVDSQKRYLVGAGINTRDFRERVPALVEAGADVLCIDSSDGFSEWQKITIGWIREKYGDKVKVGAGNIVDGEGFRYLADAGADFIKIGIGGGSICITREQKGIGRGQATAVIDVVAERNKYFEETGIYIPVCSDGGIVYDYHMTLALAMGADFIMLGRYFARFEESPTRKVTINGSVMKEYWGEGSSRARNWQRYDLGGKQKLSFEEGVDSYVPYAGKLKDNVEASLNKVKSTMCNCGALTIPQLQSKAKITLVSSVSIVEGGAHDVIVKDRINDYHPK
UniProt P08631, whole entry: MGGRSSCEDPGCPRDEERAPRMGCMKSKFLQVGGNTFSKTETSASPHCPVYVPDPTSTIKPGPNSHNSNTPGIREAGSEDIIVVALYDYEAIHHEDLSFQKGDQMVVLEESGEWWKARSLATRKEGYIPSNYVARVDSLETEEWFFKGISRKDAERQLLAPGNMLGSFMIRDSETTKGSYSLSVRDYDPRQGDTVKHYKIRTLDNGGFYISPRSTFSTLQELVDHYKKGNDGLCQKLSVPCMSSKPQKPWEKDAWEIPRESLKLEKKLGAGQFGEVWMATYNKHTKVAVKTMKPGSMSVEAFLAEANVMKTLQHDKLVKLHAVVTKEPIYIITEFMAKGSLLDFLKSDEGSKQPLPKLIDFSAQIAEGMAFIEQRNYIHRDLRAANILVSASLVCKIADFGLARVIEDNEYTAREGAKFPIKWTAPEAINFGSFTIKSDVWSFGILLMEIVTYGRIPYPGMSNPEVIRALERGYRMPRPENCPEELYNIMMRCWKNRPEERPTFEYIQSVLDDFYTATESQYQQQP
UniProt P31751, whole entry: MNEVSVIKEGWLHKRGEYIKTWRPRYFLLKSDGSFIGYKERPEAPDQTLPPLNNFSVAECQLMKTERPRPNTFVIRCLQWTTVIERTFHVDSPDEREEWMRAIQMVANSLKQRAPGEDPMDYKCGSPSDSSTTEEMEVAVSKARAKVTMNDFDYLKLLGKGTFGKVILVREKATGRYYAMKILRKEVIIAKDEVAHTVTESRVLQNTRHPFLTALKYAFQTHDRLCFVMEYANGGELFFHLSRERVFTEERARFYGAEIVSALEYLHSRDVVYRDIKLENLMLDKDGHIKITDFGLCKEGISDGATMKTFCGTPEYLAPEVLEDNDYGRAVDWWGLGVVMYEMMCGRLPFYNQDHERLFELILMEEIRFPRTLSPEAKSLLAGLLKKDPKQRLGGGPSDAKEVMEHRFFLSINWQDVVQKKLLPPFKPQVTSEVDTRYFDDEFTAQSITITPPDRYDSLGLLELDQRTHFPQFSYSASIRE
UniProt P00747, 581-810 limits assumed: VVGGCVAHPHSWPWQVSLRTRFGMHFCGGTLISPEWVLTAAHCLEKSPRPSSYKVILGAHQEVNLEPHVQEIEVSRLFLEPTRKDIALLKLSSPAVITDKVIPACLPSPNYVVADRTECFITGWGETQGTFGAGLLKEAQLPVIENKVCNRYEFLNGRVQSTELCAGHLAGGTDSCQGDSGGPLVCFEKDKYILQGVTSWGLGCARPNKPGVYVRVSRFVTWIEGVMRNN
UniProt P00747, 98-580 partner limits assumed: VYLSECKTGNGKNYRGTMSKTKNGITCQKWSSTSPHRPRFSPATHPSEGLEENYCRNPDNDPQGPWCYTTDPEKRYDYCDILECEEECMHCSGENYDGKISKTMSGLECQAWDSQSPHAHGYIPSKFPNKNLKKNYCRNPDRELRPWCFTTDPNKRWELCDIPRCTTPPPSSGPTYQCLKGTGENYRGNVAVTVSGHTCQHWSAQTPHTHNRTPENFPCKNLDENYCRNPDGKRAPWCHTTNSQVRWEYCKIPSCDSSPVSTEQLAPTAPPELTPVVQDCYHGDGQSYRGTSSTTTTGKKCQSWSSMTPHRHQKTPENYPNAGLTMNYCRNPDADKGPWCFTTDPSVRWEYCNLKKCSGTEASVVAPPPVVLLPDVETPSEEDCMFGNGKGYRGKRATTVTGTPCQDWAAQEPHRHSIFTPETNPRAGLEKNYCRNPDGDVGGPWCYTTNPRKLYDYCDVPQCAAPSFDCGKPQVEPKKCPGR
UniProt P10636, 623-758 limits assumed: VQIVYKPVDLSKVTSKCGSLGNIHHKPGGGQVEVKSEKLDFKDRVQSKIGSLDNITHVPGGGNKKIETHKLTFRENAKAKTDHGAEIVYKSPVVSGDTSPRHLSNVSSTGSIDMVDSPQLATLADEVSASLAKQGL
UniProt O43175, whole entry: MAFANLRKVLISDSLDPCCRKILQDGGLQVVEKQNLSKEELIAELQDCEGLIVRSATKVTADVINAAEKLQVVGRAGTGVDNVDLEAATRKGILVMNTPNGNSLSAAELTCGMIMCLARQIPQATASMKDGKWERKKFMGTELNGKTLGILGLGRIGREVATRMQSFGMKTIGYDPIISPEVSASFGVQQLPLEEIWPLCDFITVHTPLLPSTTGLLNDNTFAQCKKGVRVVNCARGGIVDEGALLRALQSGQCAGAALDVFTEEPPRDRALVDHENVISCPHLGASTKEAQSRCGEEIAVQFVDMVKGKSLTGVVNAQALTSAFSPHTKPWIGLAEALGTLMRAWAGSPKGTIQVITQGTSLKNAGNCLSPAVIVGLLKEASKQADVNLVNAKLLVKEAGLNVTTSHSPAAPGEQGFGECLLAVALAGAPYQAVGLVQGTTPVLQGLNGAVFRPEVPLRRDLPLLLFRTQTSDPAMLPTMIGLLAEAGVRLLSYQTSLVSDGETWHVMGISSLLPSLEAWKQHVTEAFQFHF
UniProt P28335, 33-458 limits assumed: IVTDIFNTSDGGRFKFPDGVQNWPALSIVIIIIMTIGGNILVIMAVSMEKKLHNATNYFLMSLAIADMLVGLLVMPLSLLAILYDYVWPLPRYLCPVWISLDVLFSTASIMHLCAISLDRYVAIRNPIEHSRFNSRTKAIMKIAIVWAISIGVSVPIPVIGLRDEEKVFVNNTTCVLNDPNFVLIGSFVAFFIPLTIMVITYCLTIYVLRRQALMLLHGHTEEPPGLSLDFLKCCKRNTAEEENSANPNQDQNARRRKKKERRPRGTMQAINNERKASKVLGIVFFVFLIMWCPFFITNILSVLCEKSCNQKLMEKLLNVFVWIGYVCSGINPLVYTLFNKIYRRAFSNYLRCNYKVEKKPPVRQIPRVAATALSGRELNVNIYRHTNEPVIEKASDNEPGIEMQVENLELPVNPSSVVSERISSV
UniProt P06276, whole entry, looked up: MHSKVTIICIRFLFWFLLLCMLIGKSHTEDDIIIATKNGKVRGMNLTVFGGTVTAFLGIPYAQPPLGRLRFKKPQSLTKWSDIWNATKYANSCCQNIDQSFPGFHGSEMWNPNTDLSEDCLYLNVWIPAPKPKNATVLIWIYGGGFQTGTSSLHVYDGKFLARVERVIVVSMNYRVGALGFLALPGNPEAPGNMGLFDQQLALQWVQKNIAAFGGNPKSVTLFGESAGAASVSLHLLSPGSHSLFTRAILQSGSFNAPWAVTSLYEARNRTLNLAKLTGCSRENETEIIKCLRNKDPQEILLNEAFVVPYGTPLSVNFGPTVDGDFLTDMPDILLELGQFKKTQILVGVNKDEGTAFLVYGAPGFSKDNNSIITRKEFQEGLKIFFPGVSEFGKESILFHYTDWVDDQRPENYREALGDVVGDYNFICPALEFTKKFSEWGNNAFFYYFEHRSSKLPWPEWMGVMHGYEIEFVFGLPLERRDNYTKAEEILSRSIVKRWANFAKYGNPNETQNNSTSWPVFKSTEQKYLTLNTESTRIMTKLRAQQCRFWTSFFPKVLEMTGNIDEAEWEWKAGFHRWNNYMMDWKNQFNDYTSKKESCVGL
UniProt P11802, whole entry: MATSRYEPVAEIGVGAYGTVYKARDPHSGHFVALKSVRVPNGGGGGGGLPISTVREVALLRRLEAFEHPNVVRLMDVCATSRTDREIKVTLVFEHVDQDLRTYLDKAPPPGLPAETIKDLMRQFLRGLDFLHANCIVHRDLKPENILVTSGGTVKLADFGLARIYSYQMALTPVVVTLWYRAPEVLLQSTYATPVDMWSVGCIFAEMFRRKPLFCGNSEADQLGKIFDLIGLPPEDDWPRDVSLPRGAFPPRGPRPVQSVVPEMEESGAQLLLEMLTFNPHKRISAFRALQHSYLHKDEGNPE
UniProt P30281, whole entry partner: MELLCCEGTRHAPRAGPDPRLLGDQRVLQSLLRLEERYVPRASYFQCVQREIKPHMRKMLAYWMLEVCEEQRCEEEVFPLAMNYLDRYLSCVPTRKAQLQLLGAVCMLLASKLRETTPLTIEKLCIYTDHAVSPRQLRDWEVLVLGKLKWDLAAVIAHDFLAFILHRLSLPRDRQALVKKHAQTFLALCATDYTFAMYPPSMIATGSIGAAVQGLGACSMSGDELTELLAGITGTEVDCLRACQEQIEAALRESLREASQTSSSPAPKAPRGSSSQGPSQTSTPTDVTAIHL

| Structure (SMILES) | target | test | system | setting | endpoint | value |
| --- | --- | --- | --- | --- | --- | --- |
| O=C(Cn1c(-c2ccccn2)nc2ccccc21)Nc1ccc2ccccc2c1 | Inosine-5'-monophosphate dehydrogenase (IMPDH, Tritrichomonas foetus, UniProt P50097) | enzyme activity, inhibitor |  |  | IC50 | > 10000 nM |
| CCN1CCN(Cc2ccc(NC(=O)c3ccc(C)c(/C=C/c4cnc5[nH]ccc5c4OC)c3)cc2C(F)(F)F)CC1 | Tyrosine-protein kinase HCK (HCK, Homo sapiens, UniProt P08631) |  | human cells |  | EC50 | 402 nM |
| CC1(C)S[C@@H]2CS[C@@H](CS)N2[C@H]1C(=O)O | Metallo-beta-lactamase VIM-2 (VIM-2, Escherichia coli, UniProt Q5U7L7) | nitrocefin hydrolysis, inhibitor |  | added: nitrocefin | Ki | 14000 ± 1000 nM |
| CC#C/C(=N\OC[C@H]1COCCN1)c1ccc2ncnc(Nc3ccc(OCc4cccc(F)c4)c(Cl)c3)c2c1 | RAC-beta serine/threonine-protein kinase (AKT2, Homo sapiens, UniProt P31751) | kinase activity |  | 10 µM | inhibition | -22.4% |
| CC[C@@H](C)[C@@H](NC(=O)C(O)Cc1ccc(O)c(Cl)c1)C(=O)N1C(C(=O)NCCCCN=C(N)N)CC2CCC(OS(=O)(=O)O)CC21 (stereo partly shown) | Plasminogen (PLG, Homo sapiens, UniProt P00747) | enzyme activity, inhibitor |  |  | IC50 | 2.7 µg/mL |
| Fc1ccc(-c2ccc3c(c2)[nH]c2ccncc23)cn1 [isotope labelled] | Microtubule-associated protein tau, aggregated (MAPT, Homo sapiens, UniProt P10636) | binding, Scatchard analysis | Alzheimer's brain homogenate |  | Kd | 1.9 ± 0.5 nM |
| O=C(N/N=C/c1cc([N+](=O)[O-])ccc1O)c1ccc(O)cc1O | D-3-phosphoglycerate dehydrogenase (PHGDH, Homo sapiens, UniProt O43175) | surface plasmon resonance |  | 25 °C | Kd | 560 ± 100 nM |
| CCCN1CCN(c2ccc3c(c2)C2CC3CCN2C(=O)OCc2ccccc2)CC1 (stereo not shown) | 5-hydroxytryptamine receptor 2C (HTR2C, Homo sapiens, UniProt P28335) | binding, radioligand binding |  |  | Ki | 2140 nM |
| CCN(CC)c1ccc2c(O)c(C=Nc3ccc(CC(=O)NNc4c5c(nc6ccccc46)CCCC5)cc3)c(=O)oc2c1 | Cholinesterase (BCHE, Homo sapiens, UniProt P06276) | enzyme activity, inhibitor, fluorescence |  |  | IC50 | 110 ± 110 nM |
| Fc1cccc(-n2cnc3c(NCc4nc5cc(Cl)ccc5[nH]4)nc(N4CCNCC4)nc32)c1 | Cyclin-dependent kinase 4, with cyclin D3 (CDK4, Homo sapiens, UniProt P11802) | enzyme activity, inhibitor |  |  | IC50 | 391 nM |

Repeated from above:
| Structure (SMILES) | target | test | system | setting | endpoint | value |
| --- | --- | --- | --- | --- | --- | --- |
| Fc1ccc(-c2ccc3c(c2)[nH]c2ccncc23)cn1 [isotope labelled] | Microtubule-associated protein tau, aggregated (MAPT, Homo sapiens, UniProt P10636) | binding, Scatchard analysis | Alzheimer's brain homogenate |  | Kd | 1.9 ± 0.5 nM |
